# Experimental data gathered from unrelated publications.
# Parts stem from different laboratories: compare values within a part only.

# Series 1 — method: universal PBM; form: double-stranded DNA, one strand shown; sample: in vitro; concentration: 600 nM; reading: higher = stronger binding
# Target: Sal-like protein 4, full length isoform A (SALL4, Homo sapiens, UniProt Q9UJQ4, residues 1-1053)
# Chain of UniProt Q9UJQ4 (whole entry, looked up): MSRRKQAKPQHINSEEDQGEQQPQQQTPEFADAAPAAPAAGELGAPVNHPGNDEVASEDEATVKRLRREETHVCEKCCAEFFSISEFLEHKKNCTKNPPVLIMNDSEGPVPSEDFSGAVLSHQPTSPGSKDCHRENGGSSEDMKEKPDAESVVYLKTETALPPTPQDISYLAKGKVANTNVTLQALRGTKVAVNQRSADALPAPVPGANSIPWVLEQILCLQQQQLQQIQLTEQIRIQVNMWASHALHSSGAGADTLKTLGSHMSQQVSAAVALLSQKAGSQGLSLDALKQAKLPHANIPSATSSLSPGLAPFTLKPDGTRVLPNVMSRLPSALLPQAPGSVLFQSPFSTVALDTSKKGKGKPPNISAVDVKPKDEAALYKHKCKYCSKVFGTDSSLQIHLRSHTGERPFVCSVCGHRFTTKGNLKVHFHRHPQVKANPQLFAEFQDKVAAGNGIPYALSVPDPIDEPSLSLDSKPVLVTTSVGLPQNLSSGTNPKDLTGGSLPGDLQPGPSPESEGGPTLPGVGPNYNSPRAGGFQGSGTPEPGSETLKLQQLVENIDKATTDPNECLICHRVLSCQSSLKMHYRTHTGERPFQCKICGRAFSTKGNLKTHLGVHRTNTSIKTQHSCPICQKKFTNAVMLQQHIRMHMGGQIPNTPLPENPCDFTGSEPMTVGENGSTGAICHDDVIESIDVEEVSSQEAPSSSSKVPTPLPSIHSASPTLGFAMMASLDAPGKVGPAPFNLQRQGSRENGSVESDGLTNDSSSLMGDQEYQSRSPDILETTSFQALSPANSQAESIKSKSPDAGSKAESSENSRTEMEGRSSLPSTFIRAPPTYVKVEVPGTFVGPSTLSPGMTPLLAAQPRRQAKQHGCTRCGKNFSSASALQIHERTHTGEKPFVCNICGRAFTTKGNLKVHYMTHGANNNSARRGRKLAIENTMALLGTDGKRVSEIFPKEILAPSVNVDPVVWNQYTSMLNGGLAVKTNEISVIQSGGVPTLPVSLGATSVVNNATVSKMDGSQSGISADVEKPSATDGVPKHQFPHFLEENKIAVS
# Notes: 8-mer, flanks averaged, mean of replicates
Oligonucleotide,E-score
CAACTTAA,0.149
ACCTAATC,0.144
CAACGGGC,-0.162
GCATCGCC,-0.221
TATGGAGA,0.228
AAAAATCT,0.282
AAGGTATC,-0.0694
ATCGAGTC,0.00834
AAGGGGGC,-0.27
CGCACACG,-0.178
ACACCCTC,-0.106
CTACTGAC,-0.0746
AACCTTCC,-0.108
AGAGCGAG,-0.189
CTGTCACC,-0.128
CCCCATAA,0.0433
CATAGACA,0.0944
CGTTAACG,-0.0773
CTATAAGA,0.158
CGATAGGA,-0.0219
GGTCACGA,-0.186
GTCTAAAC,0.0754
AGGTTTAC,-0.0788
CCGATATC,-0.0825
GAAAGTTA,0.111

# Series 2 — method: protein-binding microarray; form: double-stranded DNA, one strand shown; sample: in vitro; concentration: not given; reading: higher = stronger binding
# Target: Hepatocyte nuclear factor 3-beta, forkhead domain (FOXA2, Homo sapiens, UniProt Q9Y261, residues 142-269)
# Notes: k-mer, scored over probes, only values ≥0.25
# Construct (chain): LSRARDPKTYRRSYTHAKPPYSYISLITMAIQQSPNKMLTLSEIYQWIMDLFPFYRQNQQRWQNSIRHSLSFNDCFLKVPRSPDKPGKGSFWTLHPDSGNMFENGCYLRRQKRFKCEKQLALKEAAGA
Oligonucleotide,E-score
ATAGATAG,0.25
AGTATTTA,0.365
CAAACACA,0.402
CGTAGTAA,0.295
GTAATGTA,0.253
ATCACAAG,0.272
AATGCAGA,0.265
GAATATTA,0.254
TAATCACA,0.284
ATACACTA,0.327
CATCACAC,0.268
TAAGTCAA,0.255
AACAGACT,0.298
CGCAAACA,0.318
GTATCTTA,0.319
TAAGTAAA,0.275
ACATTCCA,0.319
ATACTTTA,0.369
ACAACAAC,0.28
ATCATACA,0.388
AGAATATA,0.281
ATGTTATA,0.365

# Series 3 — method: protein binding microarray; form: double-stranded DNA, one strand shown; sample: in vitro; concentration: not given; reference: not given; reading: higher = stronger binding
# Target: Histone acetyltransferase KAT6A, winged helix 1, GST fusion (KAT6A, Homo sapiens, UniProt Q92794, residues 1-85)
# Notes: 8-mer, flanks averaged, mean of 2 arrays, mostly near background
# Residues (chain): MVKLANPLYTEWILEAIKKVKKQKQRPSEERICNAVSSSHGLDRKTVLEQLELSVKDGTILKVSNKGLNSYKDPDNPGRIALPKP
Oligonucleotide,E-score
AAGTAGAA,-0.251
TACATCTA,-0.17
CGGAACAG,0.0491
ATGCGGGC,0.173
ACTCGAGA,-0.0777
CTCTTATA,0.0332
ACGGCGAA,0.339
ACACCAGT,-0.288
CTCCTGCC,-0.167
ACCAGTGC,-0.0249
CACAGAAC,-0.0477
AGGCAGAT,-0.155
ATGCGCCC,0.324
CATACTCC,-0.00153
ACATAAAC,-0.0828
AGAGAGCA,-0.0573
ACGTCGGA,0.0446
ATCGCCAT,0.0342
CGACTGGA,-0.0499
AATGGGGC,-0.134
GATTTTCA,-0.223

# Series 4 — method: RNA Bind-n-Seq; form: RNA; sample: in vitro; concentration: 365 nM; reference: no-protein control; reading: higher = stronger binding
# Target: RNA binding protein fox-1 homolog 2, RRM domain, GST-SBP tag (RBFOX2, Homo sapiens, UniProt O43251-10, residues 100-194)
# Notes: natural RNA segment, single round, ends assumed
# Constant ends, left off below: GGGAGUUCUACAGUCCGACGAUC … UGGAAUUCUCGGGUGCCAA
# Target sequence (chain): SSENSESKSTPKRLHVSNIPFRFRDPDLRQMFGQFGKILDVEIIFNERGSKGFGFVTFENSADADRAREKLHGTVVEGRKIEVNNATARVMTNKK
Oligonucleotide,RBNS enrichment (R)
GAUUUAUGAACAGCUGUGUCUGCUACAUACACGUGCCCCUGUCUGAAGGCCAAGUGAUGGCUUCUGUUCUGGUGGCUUGAACUAACAGGUGGUGUAUCGCCACCUGACUC,0.31
UAUAGAACCACACAAUAUUUAUCAUCAUUGGGUCAAUUUCUCCCCCUCUAUCAAGUGAGGAGAUUAAGGCUUAAAGAAAGGAAAGGACUUGCCAGCCACCACAGGGCUCA,0.364
CACCAACAACAAACGUGUUUGAAUUCACCUUACCAAUAUUAAUCCCAGCGUGUGUAAAACAGAACAGUAACUCUAUGUGACCCCAGAUAACAUUUUGUAACAUUGUGCUU,1.53
CGACACUGACGUCCACCGUGCAUGUGGCUGAGGGAGAGAGCCAGCUGGUUGUUUCUGGUAUAGCUGUGCCACGAGAGCCCAGCUUGCUGUUGCUGCGGCCCUGGGGUUUA,8.45
GCUAUGUUCAAUAUGGCAGAGCCAAAAGCCAAGUUCUAAGGCAGCCGAAAUAAAAAGCUUUGAAACCAUAGCCUUGCCUUCUGGUUUGAUUACAGGGAGCCUUGUCUGGU,0.411
AUUAUGAAUAGUGUUGCACUGUAAUCUAUCAUAUAGAGCUAUAUGUAUGGAAAUUUUUGAUCAGUUUUUUAAGAGAUGUAUCCUGUUUGCAAAGGCACAAUAAAAUUGCA,6.87
AGACAGCAGAGUUGCUCCAAGUAUAAAUGUGACUUAGGCUCCCUCCAGCACACAGUGUGUAUGUUGGAGGGAGUGUGGAUUAGCAGAGAAUGAGAACUACCUCAGCUAUU,0.463
CUACCCAGAGCAUUCAGCUUGGGACUGUCGUCCAGUGCAGGGCCCAGGUGAGAGGAGACUGCCAGCGAGUCCCUAGAUCUUGUAGCCAUGAUACCACACAGUCAUUUCCC,0.464
CUUGAGUGUGUCUGCGUGUUUACACCCAUCCCUCUUUGGGCGGCCCCCUGCUCUGCCCUCCACGGAAUUGGAUUCCAAGGGCUGUUCCAGACAACUGCCAACGUCACUGA,0.397
UCUUUUGUAGUAGCUGAGAUCUGCAAUAUAUAACGGGACAGUCAAAGGGCAAUGUUUUUCUGUAACAUAUUGGAAAAAGAAAAUGCAGUUAUAUUCCUUUUUUAUUUGUU,0.799
GCAGUGUAAAUGCUAGGCCUCAGAAAUCUGAAAAAAGAUAGCAAAGAAAGUGGGUUUGGAACGUAUGGUUUGGAAUUGCUUGUCAGACUCUGAAGAAGAUGUGUUUCAGC,2.16
GCAGGAGAAUUGCUUGAGCCCGGGAGGCAGAGGCUGCAGUGAACCAAGAUCAUGCCACUGCACUCCAGCCUGGGCAACACAGCGAGACUCCGUCUCAAAAAGAAAAAGUU,0.501

# Series 5 — method: RNAcompete; form: RNA; sample: in vitro; concentration: 20 nM; notes: 7-mer, probes averaged, single round; reference: mean of 7-mers; reading: higher = stronger binding
# Target: PABPC1L2, full length, GST fusion (mouse, UniProt A0ABA7IW68)
# Residues (chain): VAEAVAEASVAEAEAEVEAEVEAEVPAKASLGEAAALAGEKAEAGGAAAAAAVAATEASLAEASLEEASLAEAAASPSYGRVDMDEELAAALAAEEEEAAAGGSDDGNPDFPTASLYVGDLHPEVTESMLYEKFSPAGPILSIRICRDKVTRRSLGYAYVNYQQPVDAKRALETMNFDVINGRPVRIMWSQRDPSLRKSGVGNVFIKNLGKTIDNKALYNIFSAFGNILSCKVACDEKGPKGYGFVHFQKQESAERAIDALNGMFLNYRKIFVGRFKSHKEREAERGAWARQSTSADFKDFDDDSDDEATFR
Oligonucleotide,7-mer Z-score
UGCAGGA,0.2
CGUAGUC,-0.398
GACCGUG,-0.0609
GUGGAAC,0.0895
CUGCGAC,-0.161
GGAAUCC,-0.0826
UAGGGAC,0.18
CAACGUC,-0.224
UGCCUGU,-0.266
GCGUGUU,-0.351
CCGCUAG,-0.137
CCUGAUC,-0.382
UGAUCUU,-0.275
AAAGCGG,1.59
UGAAUCU,-0.271
UGCCUGC,-0.257
AAGAGAC,0.367
UACUUGU,-0.316
GAACAUC,-0.233

# Series 6 — method: RNA Bind-n-Seq; form: RNA; sample: in vitro; concentration: 1 µM; notes: whole 134-nt RNA, ends assumed; together with: 150 mM KCl; reference: input library; reading: higher = stronger binding
# Target: Ras GTPase-activating protein-binding protein 1, C-terminal RGG region (G3BP1, Homo sapiens, UniProt Q13283)
# Chain of UniProt Q13283 (whole entry, looked up): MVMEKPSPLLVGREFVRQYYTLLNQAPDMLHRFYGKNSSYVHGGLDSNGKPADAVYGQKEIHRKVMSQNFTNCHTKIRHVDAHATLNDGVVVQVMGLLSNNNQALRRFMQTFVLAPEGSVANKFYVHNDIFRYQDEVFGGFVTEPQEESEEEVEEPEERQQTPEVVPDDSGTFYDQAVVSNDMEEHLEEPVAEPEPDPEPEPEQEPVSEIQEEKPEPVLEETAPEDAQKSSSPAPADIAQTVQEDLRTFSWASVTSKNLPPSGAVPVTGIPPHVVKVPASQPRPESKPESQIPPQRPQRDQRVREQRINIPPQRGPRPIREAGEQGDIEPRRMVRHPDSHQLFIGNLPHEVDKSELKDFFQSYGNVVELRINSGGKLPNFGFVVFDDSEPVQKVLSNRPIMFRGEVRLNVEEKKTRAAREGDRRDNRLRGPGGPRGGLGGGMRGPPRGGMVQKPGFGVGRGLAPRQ
# Constant ends, left off below: GGGAGUUCUACAGUCCGACGAUC … UGGAAUUCUCGGGUGUCAAGG
Oligonucleotide,log2 enrichment
CAAGUCCUGUGCUACACAUCGUAUGUACCGAAUCGGGAAAGGGAAAAAGGGAGGGAAAGUAUUAUGUUACGCCGUUCGGAUCUGCACUUC,1.87
AAGUCCUGUGCUACACAUCGUAUGUACCGAAUCGGGAAAGGGAGGGUUUUUUUGGGAAAGUAUUAUGUUACGCCGUUCGGAUCUGCACUU,1.3
UUAGAAGAACCCGAAGAACCUAAAGUGCUAACACCAGAAGAACAAUUAGCAGAUAAACUGCGGCUAAAGAAAUUACAGGAAGAGUCAGAC,-0.274
AAGUCCUGUGCUACACAUCGUAUGUACCGAAUCGGGUUUUUUUGGGUGGGAAAGGGAAAGUAUUAUGUUACGCCGUUCGGAUCUGCACUU,0.713
UGGCCCUGGUGGCAUGCGGGGAGGAAGAGGUGGCCUCAUGGAUUGUGGUGGUCCCGGUGGAAUGUUCAGAGGUGGCCGUGGUGGAGACAG,2.19
UUUCUUCUGCUGCUGCUAGUCAUGAGAUCAAGGUGGGUCUGAGAAUGGCCAUUCAGAGGCCCUGGAUAGUAACCAGGUAAUGGAUGACAC,-1.15
UCAAGUCCUGUGCUACACAUCGUAUGUACCGAAUCGGGCCGGGGCCGGCCGGGGAAAGUAUUAUGUUACGCCGUUCGGAUCUGCACUUCC,-1.08
UCCUGUGCUACACAUCGUAUGUACCGAAUCGGGCCCCCCGGGGCCCCCCGGCCCCCCGGGAAAGUAUUAUGUUACGCCGUUCGGAUCUGC,-0.873
CAAGUCCUGUGCUACACAUCGUAUGUACCGAAUCGGAAAAAAAGGUUUUUGGAGGAAAGUAUUAUGUUACGCCGUUCGGAUCUGCACUUC,-1.95
UGGCCCUGGUGGCAUGCGGGGAGGAAGAGGUGGCCUCAUGGAUCGUGGUGGUCCCGGUGGAAUCUUCAGAGGUGGCCGUGGUGGAGACAG,1.86
CUCAAGUCCUGUGCUACACAUCGUAUGUACCGAAUCGGGGUUGGUUGGGUUGGGAAAGUAUUAUGUUACGCCGUUCGGAUCUGCACUUCC,0.262
CUCAAGUCCUGUGCUACACAUCGUAUGUACCGAAUCGGGAAGGAAGGGGAAGGAAAGUAUUAUGUUACGCCGUUCGGAUCUGCACUUCCA,-1.28
CAAGUCCUGUGCUACACAUCGUAUGUACCGAAUCGGUGGAAAAAGGUUUUUUUGGAAAGUAUUAUGUUACGCCGUUCGGAUCUGCACUUC,-1.68
CAAGUCCUGUGCUACACAUCGUAUGUACCGAAUCGGGAAGGGGAAGGGGAAGGGGAAAGUAUUAUGUUACGCCGUUCGGAUCUGCACUUC,2.94
